Published values pooled from the literature.
Each numbered part is a random draw from the data of one study; scales do not carry over between parts.

Block 1 — technique: protein-binding microarray; molecule type: double-stranded DNA, one strand shown; medium: in vitro; tested at: 0.8 µM; setting: whole 60-bp probe, no competitor; direction: higher = stronger binding; all sequences stand within: … GTCTTGATTCGCTTGACGCTGCTG
Target: Centromere-binding protein 1, full length, N-terminal tag (CBF1, Saccharomyces cerevisiae, UniProt P17106, residues 1-351)
UniProt P17106, sequence (whole entry, looked up): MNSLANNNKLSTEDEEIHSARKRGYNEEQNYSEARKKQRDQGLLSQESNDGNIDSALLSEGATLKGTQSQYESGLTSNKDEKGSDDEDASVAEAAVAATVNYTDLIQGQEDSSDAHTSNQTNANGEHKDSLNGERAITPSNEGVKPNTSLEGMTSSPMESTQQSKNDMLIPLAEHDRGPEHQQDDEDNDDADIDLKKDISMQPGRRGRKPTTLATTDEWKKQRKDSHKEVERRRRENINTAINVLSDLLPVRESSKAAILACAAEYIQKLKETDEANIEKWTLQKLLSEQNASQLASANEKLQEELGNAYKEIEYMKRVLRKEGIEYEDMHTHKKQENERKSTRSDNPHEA
| Strand | fluorescence intensity [a.u.] |
| --- | --- |
| TGTACGAAGCTATAAAACCTCACTATAGTAGTTAGG | 509 |
| TGTACGAAGCTATCGCACGTTCATATAGTAGTTAGG | 554 |
| GAAAAGTGTCTTGCTCTGATGTATTTGTTTTTTTAG | 495 |
| CTAGTCATAACGCGTGGTGTTGTGGTTTTGCTTTTC | 538 |
| CCTAACTACTATAGCCACGATAAATAGCTTCGTACA | 526 |
| GAACTTCGCTCTTGCTTCGTCACCTGCCCCGAATAG | 3050 |
| CTAGGAGGATGCCCCCATGTGCTGATTCTCCCCTTC | 484 |
| CTAGAAAGAAAAAAACGCGTGGCGGGTAAAGAATTC | 520 |
| GAAACAACGATTGATCACGCAGATGACTAACCGTAG | 875 |
| CTAAAAGTAATACGCCACATGAAGACTAACGACTTC | 540 |
| TGTACGAAGCTATGTCACGTTCATATAGTAGTTAGG | 1530 |
| GAACTGATGCGATTCCTCGTGTACCATGATCTGTAG | 610 |
| TGTACGAAGCTATGTGACTTTTGTATAGTAGTTAGG | 558 |
| CTATTCCCAGCTTTTCACGTGCGAGGTGGACTATTC | 2540 |
| CTACATACATGCACGCGCATGACAGTGACTGGCTTC | 1050 |
| GAAGCTTAAGGCCCCCACGAACAGTACGTGAGCTAG | 494 |
| GAATGTAATTATCAACACGTGCATTACCCAGCGTAG | 9190 |
| GAAATATTTTTGCACCACGTAGAACTCAGAAGTTAG | 576 |
| CTATGTTTTTGCACTGGTGATTTGTAAACCAGATTC | 569 |
| CTACATAGTAGTATTCATGTCACTAGCACATTATTC | 593 |
| GAAGTTTATATAGGTATGGTGACGAGGCTCTACTAG | 571 |
| CTAAATGGTCATAAACATGTGGTGTGCAATGTGTTC | 785 |
| CTAGCATCTGCAATGTGCGTGATTTCTCCGTTATTC | 584 |
| TGTACGAAGCTATTTCACGTGTATATAGTAGTTAGG | 2170 |
| CTATGGAAAGGCCTTCACATGGTGATCCATCTTTTC | 575 |

Block 2 — technique: RNA Bind-n-Seq; molecule type: RNA; medium: in vitro; tested at: 200 nM; setting: whole 134-nt RNA, ends assumed; added: 150 mM LiCl; baseline: input library; direction: higher = stronger binding; all molecules: 7-deaza-guanosine replaces G
Target: Ras GTPase-activating protein-binding protein 1, full length (G3BP1, Homo sapiens, UniProt Q13283)
UniProt Q13283, sequence (whole entry, looked up): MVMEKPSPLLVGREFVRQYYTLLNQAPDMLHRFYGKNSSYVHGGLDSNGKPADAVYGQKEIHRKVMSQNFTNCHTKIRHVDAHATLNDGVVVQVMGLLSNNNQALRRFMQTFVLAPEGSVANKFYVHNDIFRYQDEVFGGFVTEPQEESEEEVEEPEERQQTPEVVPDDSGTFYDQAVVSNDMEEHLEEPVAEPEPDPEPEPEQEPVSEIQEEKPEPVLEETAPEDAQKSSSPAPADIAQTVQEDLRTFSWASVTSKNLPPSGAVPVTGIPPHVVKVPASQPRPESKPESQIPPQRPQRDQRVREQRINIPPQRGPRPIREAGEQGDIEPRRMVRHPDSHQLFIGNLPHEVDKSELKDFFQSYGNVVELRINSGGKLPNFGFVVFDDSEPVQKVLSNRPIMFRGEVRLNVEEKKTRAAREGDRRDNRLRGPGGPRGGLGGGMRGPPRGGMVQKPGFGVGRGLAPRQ
All sequences stand within: GGGAGUUCUACAGUCCGACGAUC … UGGAAUUCUCGGGUGUCAAGG
| Strand | log2 enrichment |
| --- | --- |
| GAGGAGACUCUGCGCAGAGCACUUUGGGUCCGGAGGGCGAGACUCCGGCGGAAGCAUUCCCGGGCGGGUGACCCAGCACGGUCCCUCUUG | -0.908 |
| UCAAGUCCUGUGCUACACAUCGUAUGUACCGAAUCGGGUUGGGUUGGGUUGGGGAAAGUAUUAUGUUACGCCGUUCGGAUCUGCACUUCC | 0.243 |
| UCCUGUGCUACACAUCGUAUGUACCGAAUCGGAAAAAAGGGAAAAAAGGGGAAAAAAGGGAAAGUAUUAUGUUACGCCGUUCGGAUCUGC | -0.511 |
| UCCUCAAGUCCUGUGCUACACAUCGUAUGUACCGAAUCGGUGGGUGGGUGGGAAAGUAUUAUGUUACGCCGUUCGGAUCUGCACUUCCAG | 0.953 |
| UGGGAGGUGGAUUUUGUUUAUUUUUUUAGCUCAUUUCCAGGGGUGGGAAUUUUUUUUUAAUAUGUGUCGUGAAUAAAGUUGUUUUUGAAA | 0.0758 |
| CUCAAGUCCUGUGCUACACAUCGUAUGUACCGAAUCGGUGGUUUGGUUUUUGGAAAGUAUUAUGUUACGCCGUUCGGAUCUGCACUUCCA | 0.414 |
| UUCAGUUAUUCAAGCGGAGAAAUGUUGCUACAGCAGAAGAAGAAACAGAAGAAGAAGUUAUGUCAGAUGGAGGCUUUCAUGAGGCUCAGA | -2.74 |
| UGGCUAGUCAGCAGCGGAUGUCCCCUCCAGGUUAAGAAAGCCGAACCAGAGCCGAUGCGAGAGGAGGAGAAAAUGAUUCCUCCUACGAAA | 0.696 |
| AGUCCUGUGCUACACAUCGUAUGUACCGAAUCGGGGAAAAGGAAAAGGGAAAAGGGGAAAGUAUUAUGUUACGCCGUUCGGAUCUGCACU | -0.382 |
| AAGUCCUGUGCUACACAUCGUAUGUACCGAAUCGGGGCCCCGGCCCCGGCCCCGGGGAAAGUAUUAUGUUACGCCGUUCGGAUCUGCACU | -1.01 |
| GUCCUGUGCUACACAUCGUAUGUACCGAAUCGGGAAAGGGAAAAAGGGAAAAAAAGGGAAAGUAUUAUGUUACGCCGUUCGGAUCUGCAC | 0.118 |

Block 3 — technique: protein-binding microarray; molecule type: double-stranded DNA, one strand shown; medium: in vitro; tested at: 940 nM top; setting: 60-bp whole probe; added: salmon DNA 0.4 mg/ml; baseline: random background probes; direction: higher = stronger binding; all sequences stand within: GCCTAGCAC … GTCTTGATTCGCTTGACGCTGCTG
Target: Interferon regulatory factor 5, full length, phosphomimetic (IRF5, Homo sapiens, UniProt Q13568-2, residues 1-514, S451D/S453D/S456D/S462D)
| Strand | fitted relative affinity [z-score] |
| --- | --- |
| TTAGATTTCGGGTAACGATTAGTGCTA | 1.29 |
| GACGGACTGCTGCTGCTGACGTGCTAG | -0.756 |
| TTAGGTATCGGACTGGTTTAGTGCTAG | 3.8 |
| TTAGGAATGGGACTGGGTTAGTGCTAG | -0.309 |
| TTAGATATCAGGCTGGATTAGTGCTAG | -0.0539 |
| TTAGAAATCAGTTTCGATTAGTGCTAG | 8.58 |
| TTCTATATTTGCTTCAGGTTGTGCTAG | 0.622 |
| GACGAATCCAGTTTCGAGACGTGCTAG | 4.57 |
| TTAGCACTGGACTATCGGTTAGTGCTA | -0.201 |
| GAGGATCTCAGTCTCGAGACGTGCTAG | 1.04 |
| CTTGGTAAATTTAGCCGACGGTGCTAG | -0.58 |
| GACTATTTCAGTCTCGAGACGTGCTAG | 1.93 |
| TTAGAACTGAGCTTCGATTAGTGCTAG | -0.551 |
| CTTTGTTTTTTTCTATATGCGTGCTAG | 1.56 |
| GACGGTCTCGGAGTGGGGACGTGCTAG | 0.24 |
| GACGAACTGAGACCGGAGACGTGCTAG | -0.675 |
| TTAGATTTCGGGACTCGATTAGTGCTA | 0.46 |
| GTCGTCACTGCCATAATGCGGTGCTAG | -0.244 |
| TTAGGTTTCGACTTTCGGGTAGTGCTA | 9.15 |
| TAGTTGCAAGCCATGGGTGGGTGCTAG | -0.404 |
| CAATATTAGAGTCTCAACCCGTGCTAG | 0.1 |
| CACGGACTGGGTATCGGGACGTGCTAG | 0.887 |
| TCATCTCTTGTTCTCTCACTGTGCTAG | 2.07 |
| CTTGCTTCCCAATTCTCTTTGTGCTAG | 1.38 |
| GACGGGTTCGGTTCCGGGACGTGCTAG | 0.126 |

Block 4 — technique: protein binding microarray; molecule type: double-stranded DNA, one strand shown; medium: in vitro; tested at: not given; baseline: not given; direction: higher = stronger binding
Target: Histone acetyltransferase KAT6A, winged helix 2, GST fusion (KAT6A, Homo sapiens, UniProt Q92794, residues 85-181)
Setting: 8-mer, flanks averaged, mean of 2 arrays, mostly near background
Residues (chain): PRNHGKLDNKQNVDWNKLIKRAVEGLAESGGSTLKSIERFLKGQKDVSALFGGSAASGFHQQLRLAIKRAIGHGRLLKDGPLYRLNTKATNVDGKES
| Strand | E-score |
| --- | --- |
| CCACTCAA | 0.185 |
| CGTGATAA | 0.00061 |
| TACCTCAA | -0.0756 |
| TCCATAGA | -0.0562 |
| TAGTCAGA | -0.0613 |
| TACTCAAA | 0.0784 |
| GTGGGAAC | 0.0178 |
| ACACACCA | -0.0532 |
| GTTCATTA | 0.0314 |
| CGGTGATC | -0.13 |
| ACAGGTAG | -0.257 |
| CGCAGTAC | 0.083 |
| AGTGCAAG | 0.0546 |
| GACTTCCA | -0.206 |
| CCATCGGG | 0.185 |
| GTTGTAGA | 0.00624 |
| ATCCCACA | -0.0794 |
| CATAGTAG | -0.195 |
| AGAGTGTG | 0.0118 |
| CGTTCACA | -0.0411 |
| CGCAGGGA | 0.0773 |
| AGAGACAC | -0.122 |
| GGTATCCA | 0.144 |
| ATTGCATG | 0.128 |
| AATTCTGT | -0.0653 |

For quick reference, copied from above (block 4):
| Strand | E-score |
| --- | --- |
| TCCATAGA | -0.0562 |
| TAGTCAGA | -0.0613 |
| TACTCAAA | 0.0784 |
| GTGGGAAC | 0.0178 |
| ACACACCA | -0.0532 |
| GTTCATTA | 0.0314 |
| CGGTGATC | -0.13 |
| ACAGGTAG | -0.257 |
| CGCAGTAC | 0.083 |
| AGTGCAAG | 0.0546 |
| GACTTCCA | -0.206 |
